Results pooled from the literature.
Numbered parts are unrelated; each lists some results of a single study. “And” joins repeats or separate records; there may be more than shown.
Chain of UniProt P20813 (whole entry, looked up): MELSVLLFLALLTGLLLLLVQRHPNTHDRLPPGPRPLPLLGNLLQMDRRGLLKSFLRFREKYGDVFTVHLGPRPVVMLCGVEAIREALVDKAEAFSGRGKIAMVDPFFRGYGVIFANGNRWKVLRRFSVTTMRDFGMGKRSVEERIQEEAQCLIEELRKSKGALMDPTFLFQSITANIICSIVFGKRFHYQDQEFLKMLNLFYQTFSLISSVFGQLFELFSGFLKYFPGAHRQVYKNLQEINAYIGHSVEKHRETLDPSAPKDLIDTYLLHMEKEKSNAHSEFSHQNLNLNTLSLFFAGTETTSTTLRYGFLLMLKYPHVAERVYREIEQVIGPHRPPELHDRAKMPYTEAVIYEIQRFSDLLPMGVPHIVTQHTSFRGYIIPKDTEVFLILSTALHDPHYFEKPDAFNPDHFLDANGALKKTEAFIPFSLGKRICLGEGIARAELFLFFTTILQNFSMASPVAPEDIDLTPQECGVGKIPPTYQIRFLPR
Chain of UniProt P49841 (whole entry, looked up): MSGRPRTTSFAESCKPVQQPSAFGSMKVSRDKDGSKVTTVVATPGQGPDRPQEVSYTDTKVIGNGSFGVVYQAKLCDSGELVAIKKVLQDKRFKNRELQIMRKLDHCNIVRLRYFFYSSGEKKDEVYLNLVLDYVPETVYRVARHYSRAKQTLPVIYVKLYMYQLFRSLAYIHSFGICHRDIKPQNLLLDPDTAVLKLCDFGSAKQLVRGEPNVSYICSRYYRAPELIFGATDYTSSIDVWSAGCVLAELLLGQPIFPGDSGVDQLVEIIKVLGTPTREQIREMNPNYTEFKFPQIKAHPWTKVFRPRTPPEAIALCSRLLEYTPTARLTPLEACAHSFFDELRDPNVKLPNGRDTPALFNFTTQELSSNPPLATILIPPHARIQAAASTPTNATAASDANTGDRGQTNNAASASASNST

Study 1 — method: FLIPR membrane potential; cells: CHO-BC; concentration: 30 µM; setting: unit not given; baseline: uninhibited
Target: Sodium-dependent neutral amino acid transporter B(0)AT1 (SLC6A19, Homo sapiens, UniProt Q695T7)
Chain of UniProt Q695T7 (whole entry, looked up): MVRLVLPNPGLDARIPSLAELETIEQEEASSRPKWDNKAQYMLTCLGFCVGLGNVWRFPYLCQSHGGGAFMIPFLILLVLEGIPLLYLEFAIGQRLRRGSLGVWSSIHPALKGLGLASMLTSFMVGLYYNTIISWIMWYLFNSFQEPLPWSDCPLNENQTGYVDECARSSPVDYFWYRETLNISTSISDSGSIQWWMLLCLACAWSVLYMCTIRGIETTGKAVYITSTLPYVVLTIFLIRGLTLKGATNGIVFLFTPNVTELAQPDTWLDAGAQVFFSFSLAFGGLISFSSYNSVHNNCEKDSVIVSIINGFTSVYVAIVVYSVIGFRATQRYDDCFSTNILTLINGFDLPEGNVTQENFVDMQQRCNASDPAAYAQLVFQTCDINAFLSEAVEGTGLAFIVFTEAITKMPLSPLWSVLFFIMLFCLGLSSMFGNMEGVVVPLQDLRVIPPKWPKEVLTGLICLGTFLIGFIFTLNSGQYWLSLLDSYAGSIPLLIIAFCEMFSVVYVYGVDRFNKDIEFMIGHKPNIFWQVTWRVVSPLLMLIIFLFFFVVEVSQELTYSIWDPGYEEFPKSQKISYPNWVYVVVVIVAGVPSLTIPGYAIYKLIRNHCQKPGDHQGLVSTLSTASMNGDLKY
The remaining activity of `CON(C)C(=O)COc1cc(C)c(Cl)c(C)c1` is reported as 0.89 and 0.949 and 1.03 and 1.24 and 1.08.
The remaining activity of `Cc1cc(NCC(=O)NC(C)C)cc(C)c1Cl` is reported as 0.0598 and 0.0245 and 0.075 and 0.0704 and 0.0825.
`Cc1cc(Cl)ccc1OCC(=O)NC(C)C` gave a remaining activity of 0.832 and 0.928 and 0.919 and 0.889.
With `Cc1cc(OCC(=O)OC(C)C)cc(C)c1Cl` the remaining activity was 1.11 and 1.2 and 1.02 and 0.935 and 0.928.
With `Cc1cc(OCC(=O)NC(C)C)ccc1Cl` the remaining activity was 0.101 and 0.147 and 0.0989 and 0.377 and 0.124.
For `CCCCNC(=O)COc1cc(C)c(Cl)c(C)c1`, the remaining activity was 1 and 1.14 and 0.965 and 1.05.

Study 2
SMILES: COCC1CC2C(CCC3C(O)CCC32)c2ccc(O)cc21 (stereo not drawn)
For PANC-1; microarray, item: CCL11; 25 µM; baseline: untreated: “log2 fold change” read 6.69.
It gave 2.34 for “log2 fold change” (PANC-1; DNA microarray, item: CCL1 mRNA (probe A_23_P49759); 25 µM; baseline: control).
The “log2 fold change” was -0.0424 (A549; microarray, item: CDC25B; 100 µM; baseline: untreated).
The “log2 fold change” was 0.18 (PANC-1; DNA microarray, item: MCM10; 100 µM; baseline: untreated cells).
For SK-OV-3; DNA microarray, item: GINS1; 25 µM; baseline: untreated cells: “log2 fold change” read -0.112.
A549; microarray, item: SPC25; 25 µM; baseline: untreated — “log2 fold change”: -0.25.
SK-OV-3; DNA microarray, item: KIF20A; 25 µM; baseline: untreated cells — “log2 fold change”: -0.0494 and -0.0936 and -0.0938 and 0.0109 and -0.0865.
It gave 0.596 for “log2 fold change” (PANC-1; microarray, item: AURKA; 25 µM; baseline: untreated).
It gave -0.0994 for “log2 fold change” (SK-OV-3; microarray, item: MCM6; 100 µM; baseline: untreated).

Study 3 — read-out: binding; method: competition with immobilised ligand; concentration: 1 µM
SMILES: COc1cc(-c2nc3ccc(C(=O)NCCCN(C)C)cc3n2C2CCC2)cc(OC)c1OC
It gave 37% for remaining binding (PAK3 (Homo sapiens, UniProt O75914)).
MAPKAPK2 (Homo sapiens, UniProt P49137) — remaining binding: 100%.
GSK3B (Homo sapiens, UniProt P49841) — remaining binding: 94%.
MAPK14 (Homo sapiens, UniProt Q16539) — remaining binding: 83%.
For STK35 (Homo sapiens, UniProt Q8TDR2): remaining binding read 88%.
For CSNK1D (Homo sapiens, UniProt P48730): remaining binding read 86%.
For CDKL3 (Homo sapiens, UniProt Q8IVW4): remaining binding read 97%.
It gave 100% for remaining binding (MAP2K4 (Homo sapiens, UniProt P45985)).
The remaining binding was 98% (CAMK1G (Homo sapiens, UniProt Q96NX5)).
It gave 82% for remaining binding (DYRK1B (Homo sapiens, UniProt Q9Y463)).
For MKNK2 (Homo sapiens, UniProt Q9HBH9): remaining binding read 67%.

Study 4
SMILES: CCN1C(=O)C(O)(C(=O)O)Oc2cc(F)ccc21 (stereo not drawn)
Arabidopsis thaliana; hypocotyl length; Col-0; 12.5 µg/mL, 7 days, seed germination, dark — inhibition: 22.5%.
It gave 36.4% for inhibition (Arabidopsis thaliana; root length; Col-0, seedlings; 25 µg/mL; baseline: water control).
For Avena fatua; fresh weight; 150 g ai/ha, pre-emergence treatment: inhibition read 100%.
The inhibition was 36.4% (Arabidopsis thaliana; root length; Col-0, seedlings; 25 µg/mL).
Arabidopsis thaliana; hypocotyl length; Col-0, seedlings; 12.5 µg/mL — inhibition: 22.5%.
For Arabidopsis thaliana; root length; Col-0, seedlings; 50 µg/mL: inhibition read 42.6%.
The inhibition was 48.6% (Arabidopsis thaliana; hypocotyl length; Col-0, seedlings; 100 µg/mL).
Arabidopsis thaliana; root length; Col-0, seedlings; 6.25 µg/mL; baseline: water control — inhibition: 17%.
The inhibition was 48.6% (Arabidopsis thaliana; hypocotyl length; Col-0; 100 µg/mL, 7 days, seed germination, dark).
Arabidopsis thaliana; hypocotyl length; Col-0; 25.0 µg/mL, 7 days, seed germination, dark — inhibition: 28.4%.
The inhibition was 30.1% and 31.7% and 29.7% (Glycine max; fresh weight; soil surface spray, 150 g ai/ha, 21 days, pre-emergence crop safety).
Amaranthus retroflexus; fresh weight; 150 g ai/ha, post-emergence treatment — inhibition: 40.6% and 41.9% and 44.5%.
The inhibition was 42.6% (Arabidopsis thaliana; root length; Col-0, seedlings; 50 µg/mL; baseline: water control).

Study 5 — time: 6 days
SMILES: Cc1ncsc1-c1ccc(C(CO)NC(=O)C2CC(O)CN2C(=O)C(C(C)C)n2cc(-c3ccc(COc4c(-c5c(C)c(F)cc6[nH]ncc56)c(C5CC5)cc5c(N6CC7CC6CN7)nc(OC6CCOCC6)nc45)cc3)nn2)cc1 (stereo not drawn)
It gave 37.8% and 37.9% and 42.4% and 38.4% for viability (PSN1; cell growth or viability, ATP luminescence; 10 µM).
It gave 105% and 85.9% and 93.5% and 96.5% for viability (HCT-116; cell growth or viability, ATP luminescence; 30 nM).
It gave 92.6% and 93.5% and 90% and 86.8% for viability (HCT-116; cell growth or viability, ATP luminescence; 10 nM).
For ASPC1; cell growth or viability, ATP luminescence; 3 µM: viability read 5.26% and 7.41% and 7.42% and 6.14%.
It gave 4.93% and 5.89% and 4.32% for viability (AsPC-1; CellTiter-Glo; 3 µM; baseline: DMSO).
NCI-H1299; cell growth or viability, ATP luminescence; 10 nM — viability: 97.1% and 102% and 93.7% and 110%.
For GP2d; cell growth or viability, ATP luminescence; 10 nM: viability read 36.1% and 37.1% and 39% and 42.9%.
SW-403; cell growth or viability, ATP luminescence; 3 µM — viability: 8.68% and 7.85% and 9.28% and 10.3%.
For NCI-H1299; cell growth or viability, ATP luminescence; 3 nM: viability read 90% and 103% and 89.7% and 88.3%.

Study 6 — read-out: kinase activity; mode: inhibitor; method: ADP-Glo; concentration: 0.0009 µM
Target: Cyclin-dependent kinase 12, with cyclin K (CDK12, Homo sapiens, UniProt Q9NYV4)
Chain of UniProt Q9NYV4 (whole entry, looked up): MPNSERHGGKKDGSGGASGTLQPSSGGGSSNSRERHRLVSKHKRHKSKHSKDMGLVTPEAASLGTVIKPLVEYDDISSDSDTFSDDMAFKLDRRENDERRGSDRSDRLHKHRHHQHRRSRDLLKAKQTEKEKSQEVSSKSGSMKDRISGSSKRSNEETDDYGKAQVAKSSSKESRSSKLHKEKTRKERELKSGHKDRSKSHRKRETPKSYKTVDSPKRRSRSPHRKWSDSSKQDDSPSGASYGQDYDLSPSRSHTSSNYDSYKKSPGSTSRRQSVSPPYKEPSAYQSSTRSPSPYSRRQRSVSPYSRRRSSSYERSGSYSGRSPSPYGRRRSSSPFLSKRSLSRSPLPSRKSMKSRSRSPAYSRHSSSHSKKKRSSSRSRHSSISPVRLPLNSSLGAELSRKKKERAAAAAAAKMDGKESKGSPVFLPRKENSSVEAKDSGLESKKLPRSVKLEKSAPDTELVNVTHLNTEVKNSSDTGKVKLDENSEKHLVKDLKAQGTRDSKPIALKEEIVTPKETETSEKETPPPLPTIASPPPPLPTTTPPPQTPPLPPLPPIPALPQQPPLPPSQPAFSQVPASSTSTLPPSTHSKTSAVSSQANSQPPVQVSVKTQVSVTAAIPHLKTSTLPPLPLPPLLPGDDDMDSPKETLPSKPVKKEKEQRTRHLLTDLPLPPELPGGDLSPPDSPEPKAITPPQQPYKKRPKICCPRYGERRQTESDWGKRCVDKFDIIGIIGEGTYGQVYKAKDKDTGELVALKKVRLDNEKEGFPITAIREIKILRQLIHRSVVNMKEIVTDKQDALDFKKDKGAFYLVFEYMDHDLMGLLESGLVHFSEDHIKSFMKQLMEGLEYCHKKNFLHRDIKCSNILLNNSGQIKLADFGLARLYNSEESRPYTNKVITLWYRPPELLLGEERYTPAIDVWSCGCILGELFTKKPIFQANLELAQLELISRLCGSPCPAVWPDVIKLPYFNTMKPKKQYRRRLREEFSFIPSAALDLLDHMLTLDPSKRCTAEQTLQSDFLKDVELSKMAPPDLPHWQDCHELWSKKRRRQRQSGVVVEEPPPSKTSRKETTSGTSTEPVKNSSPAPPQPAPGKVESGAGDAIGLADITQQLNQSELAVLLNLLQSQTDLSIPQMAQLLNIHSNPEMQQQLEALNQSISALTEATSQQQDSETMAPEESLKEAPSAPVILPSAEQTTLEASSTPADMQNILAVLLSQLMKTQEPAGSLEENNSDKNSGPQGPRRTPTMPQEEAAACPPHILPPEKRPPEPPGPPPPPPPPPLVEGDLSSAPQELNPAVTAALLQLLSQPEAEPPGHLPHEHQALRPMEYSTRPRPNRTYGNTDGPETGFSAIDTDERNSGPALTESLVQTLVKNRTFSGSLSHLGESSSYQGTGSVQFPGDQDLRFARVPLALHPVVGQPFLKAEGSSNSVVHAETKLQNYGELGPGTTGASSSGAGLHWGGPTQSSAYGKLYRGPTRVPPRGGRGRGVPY
The inhibition of `CCn1cnc2c(NCc3nc4cc(Cl)c(Cl)cc4[nH]3)nc(N3CCN(C(=O)c4ccncc4)CC3)nc21` is reported as 4%.
For `CCn1cnc2c(NCc3nc4cc(Cl)c(Cl)cc4[nH]3)nc(N3CCN(C(=O)c4cccnc4)CC3)nc21`, the inhibition was -10.8%.
`CCn1cnc2c(NCc3nc4cc(Cl)c(Cl)cc4[nH]3)nc(N3CCN(Cc4ccncc4)CC3)nc21` gave an inhibition of -11.2%.
`CCn1cnc2c(NCc3nc4ccc(F)c(F)c4[nH]3)nc(N3CCn4ncnc4C3)nc21` gave an inhibition of 12.6%.
`CC(=O)N1CCN(c2nc(NCc3nc4cc(Cl)c(Cl)cc4[nH]3)c3ncn(C)c3n2)CC1` has an inhibition of -5.3%.
With `CCCCOc1nc(NCc2nc3cc(Cl)c(Cl)cc3[nH]2)c2ncn(CC)c2n1` the inhibition was 12%.
`CCn1cnc2c(NCc3nc4cc(Cl)c(Cl)cc4[nH]3)nc(N3CCN(C(=O)c4ccccc4)CC3)nc21` gave an inhibition of -18.1%.
With `CCn1cnc2c(NCc3nc4cc(Cl)c(Cl)cc4[nH]3)nc(N3CCN(C(C)=O)CC3)nc21` the inhibition was 6%.

Study 7 — cell line: U-87 MG; concentration: concentration not given; baseline: DMSO
SMILES: CCN1/C(=C/C=C2\CCCC(/C=C/C3=[N+](CC)c4ccccc4C3(C)C)=C2NCCCCCCCCN2CCC(Nc3nc4ccccc4n3Cc3ccc(F)cc3)CC2)C(C)(C)c2ccccc21
For item: KLF5 mRNA: “log2 fold change” read 1.7.
The “log2 fold change” was -2.25 (item: FPR1 mRNA).
The “log2 fold change” was 3.57 (item: IL36G mRNA).
item: BNC2 mRNA — “log2 fold change”: -1.6.
For item: EPHA2 mRNA: “log2 fold change” read -2.21.
The “log2 fold change” was -1.73 (item: TLR1 mRNA).
It gave -1.06 for “log2 fold change” (item: SLC22A23 mRNA).
item: TNFAIP8L3 mRNA — “log2 fold change”: -0.831.
The “log2 fold change” was -1.74 (item: PHLDB2 mRNA).
item: GCSH mRNA — “log2 fold change”: -0.837.
For item: EAF1 mRNA: “log2 fold change” read 1.18.
It gave -1.54 for “log2 fold change” (item: SPEG mRNA).
It gave -1.59 for “log2 fold change” (item: STXBP6 mRNA).
item: SMAD6 mRNA — “log2 fold change”: -1.63.
item: TSPAN10 mRNA — “log2 fold change”: -1.86.
item: KIF4A mRNA — “log2 fold change”: -1.79.

Study 8 — read-out: thermal unfolding; method: differential scanning fluorimetry; concentration: 5.5 µM; reading: higher = more unfolded
SMILES: C[C@@H]1CN(c2ccc(-c3cc(C(=O)NCCOCCOCCOCCOCCNC(=O)Cn4cc(-c5[nH]cc(C(=O)N[C@@H](CC(N)=O)c6ccc(F)c(Cl)c6)c5-c5ccc(Cl)cc5F)cn4)ccc3F)cc2NC(=O)c2c[nH]c(=O)cc2C(F)(F)F)C[C@H](C)N1C
WDR5: WD repeat-containing protein 5 (WDR5, Homo sapiens, UniProt P61964)
DCAF1: DDB1- and CUL4-associated factor 1 (DCAF1, Homo sapiens, UniProt Q9Y4B6)
Chain of UniProt Q9Y4B6 (whole entry, looked up): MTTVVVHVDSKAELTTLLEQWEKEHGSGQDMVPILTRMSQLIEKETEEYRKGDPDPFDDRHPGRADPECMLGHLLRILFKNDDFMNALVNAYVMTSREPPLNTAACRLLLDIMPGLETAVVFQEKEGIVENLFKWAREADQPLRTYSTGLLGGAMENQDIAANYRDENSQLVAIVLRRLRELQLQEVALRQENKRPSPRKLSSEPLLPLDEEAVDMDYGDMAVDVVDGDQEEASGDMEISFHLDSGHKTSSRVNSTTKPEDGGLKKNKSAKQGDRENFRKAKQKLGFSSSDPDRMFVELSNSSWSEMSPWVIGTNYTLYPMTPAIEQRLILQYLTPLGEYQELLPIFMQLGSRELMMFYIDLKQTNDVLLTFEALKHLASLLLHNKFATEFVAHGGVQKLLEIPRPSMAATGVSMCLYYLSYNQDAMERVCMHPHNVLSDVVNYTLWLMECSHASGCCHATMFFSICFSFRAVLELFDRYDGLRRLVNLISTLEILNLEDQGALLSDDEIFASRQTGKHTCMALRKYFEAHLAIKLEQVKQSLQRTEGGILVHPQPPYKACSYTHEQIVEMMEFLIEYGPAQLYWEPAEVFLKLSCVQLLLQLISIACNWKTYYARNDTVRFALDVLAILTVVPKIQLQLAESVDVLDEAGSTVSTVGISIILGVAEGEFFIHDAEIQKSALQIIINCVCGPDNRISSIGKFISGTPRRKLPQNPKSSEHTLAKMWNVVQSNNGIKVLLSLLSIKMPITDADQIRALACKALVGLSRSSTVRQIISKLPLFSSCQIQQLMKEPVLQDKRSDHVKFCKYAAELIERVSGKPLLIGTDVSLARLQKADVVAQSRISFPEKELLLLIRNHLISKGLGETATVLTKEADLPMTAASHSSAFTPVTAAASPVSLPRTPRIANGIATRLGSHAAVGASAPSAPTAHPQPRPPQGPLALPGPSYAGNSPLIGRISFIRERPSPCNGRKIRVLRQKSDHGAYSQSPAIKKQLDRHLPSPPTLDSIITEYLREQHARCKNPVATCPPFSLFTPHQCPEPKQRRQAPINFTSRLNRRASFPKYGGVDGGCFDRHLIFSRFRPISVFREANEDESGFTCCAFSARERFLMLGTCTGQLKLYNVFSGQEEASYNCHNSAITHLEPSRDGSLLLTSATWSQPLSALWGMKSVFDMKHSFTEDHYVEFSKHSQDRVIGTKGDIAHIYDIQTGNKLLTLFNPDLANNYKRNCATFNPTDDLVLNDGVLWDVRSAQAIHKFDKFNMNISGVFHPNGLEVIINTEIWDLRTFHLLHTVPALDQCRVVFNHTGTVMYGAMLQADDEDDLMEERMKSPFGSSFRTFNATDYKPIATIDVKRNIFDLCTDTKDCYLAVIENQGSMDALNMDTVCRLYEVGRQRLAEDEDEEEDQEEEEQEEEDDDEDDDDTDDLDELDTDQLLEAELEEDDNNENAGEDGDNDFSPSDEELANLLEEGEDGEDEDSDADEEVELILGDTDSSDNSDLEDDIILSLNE
For WDR5; 79.81 °C: “SYPRO Orange fluorescence” read 22700 a.u.
For WDR5; 91.61 °C: “SYPRO Orange fluorescence” read 41800 a.u.
It gave 52700 a.u. for “SYPRO Orange fluorescence” (DCAF1; 63.41 °C).
DCAF1; 37.8 °C — “SYPRO Orange fluorescence”: 9600 a.u.
It gave 23300 a.u. for “SYPRO Orange fluorescence” (WDR5; 80.01 °C).
The “SYPRO Orange fluorescence” was 42100 a.u. (WDR5; 86.41 °C).
DCAF1; 35 °C — “SYPRO Orange fluorescence”: 8840 a.u.
The “SYPRO Orange fluorescence” was 14800 a.u. (DCAF1; 50.4 °C).
For DCAF1; 84.81 °C: “SYPRO Orange fluorescence” read 40000 a.u.
For WDR5; 37.4 °C: “SYPRO Orange fluorescence” read 14400 a.u.
WDR5; 68.01 °C — “SYPRO Orange fluorescence”: 6900 a.u.

Study 9
Compound: Cc1ccc(O)c(C)c1-c1cnc2[nH]c(-c3cnc(N4CCC(CN5CCN(c6ccc7c(c6)C(=O)N(C6CCC(=O)NC6=O)C7=O)CC5)CC4)nc3)cc2c1C#N (stereo not drawn)
Target: Membrane-associated tyrosine- and threonine-specific cdc2-inhibitory kinase (PKMYT1, Homo sapiens, UniProt Q99640)
Chain of UniProt Q99640 (whole entry, looked up): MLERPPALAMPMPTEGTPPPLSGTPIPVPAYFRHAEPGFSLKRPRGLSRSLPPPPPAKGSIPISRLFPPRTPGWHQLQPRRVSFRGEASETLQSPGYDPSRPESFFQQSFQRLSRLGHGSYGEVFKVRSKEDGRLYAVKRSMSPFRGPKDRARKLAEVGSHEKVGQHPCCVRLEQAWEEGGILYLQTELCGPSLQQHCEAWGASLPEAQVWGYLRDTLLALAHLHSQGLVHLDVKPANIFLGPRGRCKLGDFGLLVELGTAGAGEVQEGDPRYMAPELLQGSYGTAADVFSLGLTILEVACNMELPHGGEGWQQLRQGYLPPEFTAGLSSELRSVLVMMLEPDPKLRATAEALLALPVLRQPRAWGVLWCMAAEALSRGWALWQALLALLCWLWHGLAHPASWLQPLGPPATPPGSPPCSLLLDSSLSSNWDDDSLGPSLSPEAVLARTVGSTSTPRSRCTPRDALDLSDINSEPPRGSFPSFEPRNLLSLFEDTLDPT
It gave -0.31% for inhibition (0.000152 µM).
It gave 102% for inhibition (0.3333 µM).
For cell-free assay, inhibitor, TR-FRET; 1 µM: inhibition read 99.3%.
cell-free assay, inhibitor, TR-FRET; 37.04 nM — inhibition: 95.3%.
For cell-free assay, inhibitor, TR-FRET; 1.37 nM: inhibition read 18.7%.
For cell-free assay, inhibitor, TR-FRET; 51 pM: inhibition read -3.65%.
For 1 µM: inhibition read 99.7%.
cell-free assay, inhibitor, TR-FRET; 4.12 nM — inhibition: 38%.
It gave 99.3% for inhibition (cell-free assay, inhibitor, TR-FRET; 0.3333 µM).
It gave 43.2% for inhibition (0.00412 µM).

Other studies, line by line
For `NC/C(=C\F)COc1cccc(Cn2c(=S)[nH]c(=O)c3[nH]cnc32)c1`, the remaining activity was 71.2% and 61.7% (Cytochrome P450 2B6 (CYP2B6, Homo sapiens, UniProt P20813); inhibitor; 3.33 µM).
For `CCOc1ccc2nc(Sc3nc(Nc4ccc(I)cc4)nc(N4CCOCC4)n3)sc2c1`, the mRNA level was 1.6 and 1.05 and 1.65 (Gaucher fibroblasts; qPCR, item: GBA1 mRNA; 10 µM, unit not given; baseline: vehicle).
The inhibition of `NC/C(=C\F)COc1ccc(-c2cc(=O)[nH]c(=S)n2CC(N)=O)c(Cl)c1` is reported as 82.3% (Myeloperoxidase (MPO, Homo sapiens, UniProt P05164); enzyme activity, inhibitor, fluorescence; 1.111 µM).

A few entries again (study 3):
For MKNK2 (Homo sapiens, UniProt Q9HBH9): remaining binding read 67%.
MAPKAPK2 (Homo sapiens, UniProt P49137) — remaining binding: 100%.
MAPK14 (Homo sapiens, UniProt Q16539) — remaining binding: 83%.
For CSNK1D (Homo sapiens, UniProt P48730): remaining binding read 86%.
GSK3B (Homo sapiens, UniProt P49841) — remaining binding: 94%.
For CDKL3 (Homo sapiens, UniProt Q8IVW4): remaining binding read 97%.
It gave 100% for remaining binding (MAP2K4 (Homo sapiens, UniProt P45985)).
It gave 37% for remaining binding (PAK3 (Homo sapiens, UniProt O75914)).
The remaining binding was 98% (CAMK1G (Homo sapiens, UniProt Q96NX5)).
It gave 82% for remaining binding (DYRK1B (Homo sapiens, UniProt Q9Y463)).
For STK35 (Homo sapiens, UniProt Q8TDR2): remaining binding read 88%.
